# Experimental data collected from several papers.
# Compare with care: the assays were run in different laboratories. “And” joins repeats or separate records; there may be more than shown. Numbers after ± are the reported error.
# SLC7A5: Large neutral amino acids transporter small subunit 1 (SLC7A5, Homo sapiens, UniProt Q01650)
# UniProt Q01650, sequence (whole entry, looked up): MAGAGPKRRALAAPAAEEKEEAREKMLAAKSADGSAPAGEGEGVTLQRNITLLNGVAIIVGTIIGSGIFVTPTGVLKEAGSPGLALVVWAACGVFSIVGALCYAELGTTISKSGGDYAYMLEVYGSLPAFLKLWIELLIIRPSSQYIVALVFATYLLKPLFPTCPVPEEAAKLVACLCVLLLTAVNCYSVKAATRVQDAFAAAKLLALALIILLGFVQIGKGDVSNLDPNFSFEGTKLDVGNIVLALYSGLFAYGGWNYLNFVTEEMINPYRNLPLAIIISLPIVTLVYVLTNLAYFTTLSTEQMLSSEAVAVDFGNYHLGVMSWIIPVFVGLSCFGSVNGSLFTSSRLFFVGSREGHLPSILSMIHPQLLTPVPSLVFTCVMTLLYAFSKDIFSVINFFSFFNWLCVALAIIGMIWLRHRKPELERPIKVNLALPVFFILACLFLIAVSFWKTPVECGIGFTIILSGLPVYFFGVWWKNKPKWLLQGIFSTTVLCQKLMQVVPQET
# NTSR1: Neurotensin receptor type 1 (NTSR1, Homo sapiens, UniProt P30989)
# UniProt P30989, sequence (whole entry, looked up): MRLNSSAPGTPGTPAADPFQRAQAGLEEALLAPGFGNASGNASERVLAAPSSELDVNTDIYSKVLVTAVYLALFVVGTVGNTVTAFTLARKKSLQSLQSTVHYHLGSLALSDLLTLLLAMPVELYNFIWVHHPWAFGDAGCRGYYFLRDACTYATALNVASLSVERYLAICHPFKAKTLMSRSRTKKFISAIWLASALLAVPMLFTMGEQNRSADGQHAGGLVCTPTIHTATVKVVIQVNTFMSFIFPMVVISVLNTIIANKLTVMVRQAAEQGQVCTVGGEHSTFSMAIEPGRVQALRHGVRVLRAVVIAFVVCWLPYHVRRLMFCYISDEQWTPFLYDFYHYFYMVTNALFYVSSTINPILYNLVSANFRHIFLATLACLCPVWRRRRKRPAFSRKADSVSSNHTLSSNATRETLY
# glpG: Rhomboid protease GlpG (glpG, Escherichia coli, UniProt P09391)
# UniProt P09391, sequence (whole entry, looked up): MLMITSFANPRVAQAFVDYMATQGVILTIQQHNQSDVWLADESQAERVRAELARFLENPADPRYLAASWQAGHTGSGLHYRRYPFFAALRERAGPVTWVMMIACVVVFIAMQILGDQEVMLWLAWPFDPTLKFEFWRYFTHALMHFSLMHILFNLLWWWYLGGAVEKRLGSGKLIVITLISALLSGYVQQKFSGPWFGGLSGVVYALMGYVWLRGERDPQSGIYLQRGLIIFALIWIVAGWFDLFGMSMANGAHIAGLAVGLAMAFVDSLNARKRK
# NNMT: Nicotinamide N-methyltransferase (NNMT, Homo sapiens, UniProt P40261)
# UniProt P40261, sequence (whole entry, looked up): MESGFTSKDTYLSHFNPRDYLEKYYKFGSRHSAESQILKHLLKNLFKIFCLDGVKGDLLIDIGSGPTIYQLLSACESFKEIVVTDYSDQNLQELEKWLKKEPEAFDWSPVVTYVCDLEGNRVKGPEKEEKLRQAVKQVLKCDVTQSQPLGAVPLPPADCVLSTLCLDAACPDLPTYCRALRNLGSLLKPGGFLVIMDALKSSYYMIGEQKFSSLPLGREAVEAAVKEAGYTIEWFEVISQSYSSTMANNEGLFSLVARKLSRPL
# Gria1: Glutamate receptor 1 (Gria1, Rattus norvegicus, UniProt P19490)
# UniProt P19490, sequence (whole entry, looked up): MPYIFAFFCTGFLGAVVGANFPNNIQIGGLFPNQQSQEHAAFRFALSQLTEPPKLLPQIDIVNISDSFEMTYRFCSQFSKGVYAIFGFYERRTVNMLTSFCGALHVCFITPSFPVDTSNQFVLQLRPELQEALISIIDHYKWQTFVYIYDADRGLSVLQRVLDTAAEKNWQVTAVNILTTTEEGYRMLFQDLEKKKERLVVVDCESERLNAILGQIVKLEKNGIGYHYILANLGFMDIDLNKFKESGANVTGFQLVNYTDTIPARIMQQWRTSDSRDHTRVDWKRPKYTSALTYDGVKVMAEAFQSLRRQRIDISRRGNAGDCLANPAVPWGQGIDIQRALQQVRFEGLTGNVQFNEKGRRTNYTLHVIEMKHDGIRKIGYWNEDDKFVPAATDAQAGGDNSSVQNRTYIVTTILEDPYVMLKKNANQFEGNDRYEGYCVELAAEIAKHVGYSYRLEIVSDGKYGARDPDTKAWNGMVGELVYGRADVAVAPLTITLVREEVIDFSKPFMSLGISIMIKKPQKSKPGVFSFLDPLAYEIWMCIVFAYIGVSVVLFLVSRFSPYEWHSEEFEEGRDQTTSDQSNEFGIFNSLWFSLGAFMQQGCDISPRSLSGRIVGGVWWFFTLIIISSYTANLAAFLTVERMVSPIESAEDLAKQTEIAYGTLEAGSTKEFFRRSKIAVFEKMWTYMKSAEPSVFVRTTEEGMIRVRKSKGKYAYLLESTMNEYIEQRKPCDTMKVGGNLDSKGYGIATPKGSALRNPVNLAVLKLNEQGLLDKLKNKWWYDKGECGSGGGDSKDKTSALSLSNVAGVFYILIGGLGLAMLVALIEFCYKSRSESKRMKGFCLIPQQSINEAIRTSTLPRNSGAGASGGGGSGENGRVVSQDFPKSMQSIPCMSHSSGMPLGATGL
# ADRB2: Beta-2 adrenergic receptor (ADRB2, Homo sapiens, UniProt P07550)
# UniProt P07550, sequence (whole entry, looked up): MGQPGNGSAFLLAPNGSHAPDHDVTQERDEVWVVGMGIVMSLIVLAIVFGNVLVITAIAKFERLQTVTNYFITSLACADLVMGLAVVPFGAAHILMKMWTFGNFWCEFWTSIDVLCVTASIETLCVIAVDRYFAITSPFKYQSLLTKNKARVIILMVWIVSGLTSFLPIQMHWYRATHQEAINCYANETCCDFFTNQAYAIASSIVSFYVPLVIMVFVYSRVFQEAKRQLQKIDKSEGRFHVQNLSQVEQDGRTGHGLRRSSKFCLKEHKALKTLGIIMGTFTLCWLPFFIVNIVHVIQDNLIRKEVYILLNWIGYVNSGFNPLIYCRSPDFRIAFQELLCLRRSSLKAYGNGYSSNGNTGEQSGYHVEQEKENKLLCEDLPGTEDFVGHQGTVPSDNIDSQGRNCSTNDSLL
# CHRM3: Muscarinic acetylcholine receptor M3 (CHRM3, Homo sapiens, UniProt P20309)
# UniProt P20309, sequence (whole entry, looked up): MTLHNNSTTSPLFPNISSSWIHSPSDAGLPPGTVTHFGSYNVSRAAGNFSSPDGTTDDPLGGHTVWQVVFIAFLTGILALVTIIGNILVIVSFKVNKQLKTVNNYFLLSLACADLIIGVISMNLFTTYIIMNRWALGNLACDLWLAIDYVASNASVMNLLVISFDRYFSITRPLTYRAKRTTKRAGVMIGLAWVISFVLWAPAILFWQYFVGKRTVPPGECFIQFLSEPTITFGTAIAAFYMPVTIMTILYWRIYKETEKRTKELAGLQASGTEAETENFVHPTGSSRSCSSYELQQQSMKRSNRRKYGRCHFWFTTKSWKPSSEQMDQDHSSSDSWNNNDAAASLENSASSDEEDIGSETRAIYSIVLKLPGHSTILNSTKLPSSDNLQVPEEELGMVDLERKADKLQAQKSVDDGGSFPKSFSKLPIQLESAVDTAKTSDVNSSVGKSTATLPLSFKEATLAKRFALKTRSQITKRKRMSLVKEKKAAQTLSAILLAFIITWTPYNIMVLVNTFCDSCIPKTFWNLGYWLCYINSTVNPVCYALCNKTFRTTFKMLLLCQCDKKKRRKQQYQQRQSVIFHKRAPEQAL
# ppa: Inorganic pyrophosphatase (ppa, Escherichia coli, UniProt P0A7A9)
# UniProt P0A7A9, sequence (whole entry, looked up): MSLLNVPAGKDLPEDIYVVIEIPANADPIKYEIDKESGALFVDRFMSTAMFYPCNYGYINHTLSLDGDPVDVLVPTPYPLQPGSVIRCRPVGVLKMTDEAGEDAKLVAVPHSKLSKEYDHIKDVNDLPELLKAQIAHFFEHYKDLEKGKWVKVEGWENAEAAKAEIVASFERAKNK
# DNA dC->dU-editing enzyme APOBEC-3B C-terminal domain: DNA dC->dU-editing enzyme APOBEC-3B, C-terminal domain (Homo sapiens, UniProt Q9UH17)
# UniProt Q9UH17, sequence (whole entry, looked up): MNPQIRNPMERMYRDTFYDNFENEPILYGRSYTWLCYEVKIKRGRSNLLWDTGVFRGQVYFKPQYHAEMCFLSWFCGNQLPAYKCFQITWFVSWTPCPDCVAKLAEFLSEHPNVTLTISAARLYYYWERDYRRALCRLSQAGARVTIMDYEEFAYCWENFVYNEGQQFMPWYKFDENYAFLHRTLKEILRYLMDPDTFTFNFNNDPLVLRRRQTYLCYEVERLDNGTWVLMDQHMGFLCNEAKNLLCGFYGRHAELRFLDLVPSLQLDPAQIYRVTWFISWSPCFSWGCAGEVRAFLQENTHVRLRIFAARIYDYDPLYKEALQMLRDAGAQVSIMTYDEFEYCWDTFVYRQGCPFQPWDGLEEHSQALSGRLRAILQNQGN
# PIK3CD: Phosphatidylinositol 4,5-bisphosphate 3-kinase catalytic subunit delta isoform (PIK3CD, Homo sapiens, UniProt O00329)
# UniProt O00329, sequence (whole entry, looked up): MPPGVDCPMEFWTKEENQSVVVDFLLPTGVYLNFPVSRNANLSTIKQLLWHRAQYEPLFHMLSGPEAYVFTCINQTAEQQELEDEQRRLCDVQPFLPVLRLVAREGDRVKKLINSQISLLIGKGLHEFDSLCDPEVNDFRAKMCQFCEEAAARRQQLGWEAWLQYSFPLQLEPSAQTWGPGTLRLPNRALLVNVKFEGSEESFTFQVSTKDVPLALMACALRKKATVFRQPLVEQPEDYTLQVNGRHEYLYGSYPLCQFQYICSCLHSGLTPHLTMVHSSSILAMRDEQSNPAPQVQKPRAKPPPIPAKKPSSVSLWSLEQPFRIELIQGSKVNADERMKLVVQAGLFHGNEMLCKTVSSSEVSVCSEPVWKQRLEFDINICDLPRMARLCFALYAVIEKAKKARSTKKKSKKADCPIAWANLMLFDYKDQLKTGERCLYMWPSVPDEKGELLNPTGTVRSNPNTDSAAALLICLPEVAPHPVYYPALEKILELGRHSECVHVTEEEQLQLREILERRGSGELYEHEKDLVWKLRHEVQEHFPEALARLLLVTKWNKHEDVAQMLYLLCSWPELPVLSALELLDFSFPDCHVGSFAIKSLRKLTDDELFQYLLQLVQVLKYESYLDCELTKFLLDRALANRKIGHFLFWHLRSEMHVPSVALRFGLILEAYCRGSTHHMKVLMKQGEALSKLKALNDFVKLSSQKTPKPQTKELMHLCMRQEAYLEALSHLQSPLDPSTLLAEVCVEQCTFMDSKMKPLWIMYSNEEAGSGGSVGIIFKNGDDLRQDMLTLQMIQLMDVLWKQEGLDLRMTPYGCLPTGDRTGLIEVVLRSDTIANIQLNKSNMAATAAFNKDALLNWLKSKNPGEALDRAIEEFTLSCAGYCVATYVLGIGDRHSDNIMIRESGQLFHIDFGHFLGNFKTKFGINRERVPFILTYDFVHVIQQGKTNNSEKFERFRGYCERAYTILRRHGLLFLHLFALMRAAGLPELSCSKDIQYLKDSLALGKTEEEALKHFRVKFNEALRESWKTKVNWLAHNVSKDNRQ
# Uncharacterized protein: Uncharacterized protein (Trypanosoma brucei brucei, UniProt Q386Q8)
Structure (SMILES),target,test,system,conditions,IC50
N[C@@H](Cc1c[nH]c2ccc(OCc3cccc(-c4ccoc4)c3)cc12)C(=O)O,SLC7A5,"transporter uptake, inhibitor, radiometric",,,40.1 µM
COc1ccccc1C1CCN(c2nc(C3CC3)nc3c(C)cc(N(C)CCO)cc23)CC1,NTSR1,"G protein activation, antagonist",,,2.57 µM
CC(C)(C)c1ccc(C2CC(=O)N2S(=O)(=O)c2cccc(Cl)c2)cc1 (centres unmarked),glpG,"enzyme activity, inhibitor",,,12 µM
CNCc1ccc2c(c1)C[C@H](CNC(=N)N)[C@H]2NC(=O)C(=O)Nc1ccc(Cl)c(F)c1,"env (Human immunodeficiency virus 1, UniProt O40222)",viral infection,"Cf2Th-CD4/CCR5, HIV-1",48 h,3.07 µM
CNc1cc(C)c(C(N)=O)cn1,NNMT,"enzyme activity, inhibitor",,,0.251 µM
CC(C)NC(=O)c1ccc2nc(-c3ccccc3)cn2c1,"Protein AF-9, YEATS domain (Homo sapiens, UniProt P42568)","YEATS domain binding, inhibitor, HTRF",,,17.4 µM
COC(=O)Cc1cc2c(cc1C(=O)c1cccc(I)c1)OCO2,Gria1,"ion current, patch clamp",,,5.9 µM
Brc1cccc(Nc2nc(NC3CCCCC3)c3ccccc3n2)c1,ADRB2,"cAMP production, antagonist, GloSensor",,together with: isoproterenol 1 µM,> 50 µM
CCCC(=O)OC1CCC2(C)C(CCC3(C)C2CC=C2C4C(C)C(C)CCC4(C(=O)O)CCC23C)C1(C)C (centres unmarked),"UGT1A4 (Homo sapiens, UniProt P22310)","enzyme activity, inhibitor","human, liver microsomes",,1.36 µM and 1.22 µM
Fc1ccc(Nc2nc(NC3CCCCC3)c3ccccc3n2)cc1Cl,ADRB2,"cAMP production, antagonist, GloSensor",,together with: isoproterenol 1 µM,26 ± 11 µM
O=C(CCNC(=O)CNC(=O)CC(c1ccccc1)(c1ccccc1)c1ccccc1)NCC1CCN(C(=O)c2ccc(F)cc2)CC1,CHRM3,"ligand displacement, radioligand",,cell membranes,> 30 µM
NC1=NCCc2ccccc21,NNMT,"enzyme activity, inhibitor",,,1.58 µM
CCN(CC)CC(=O)Nc1cccc(-n2cc(-c3ccc4ccc(-c5cn(-c6cccc(NC(=O)CN(CC)CC)c6)nn5)cc4c3)nn2)c1,"WNK1 (Homo sapiens, UniProt Q9H4A3)","enzyme activity, inhibitor",,,> 10 µM
Cc1nn(-c2cccc(N)c2)c(=O)c2cnc(Nc3ccc(N4CCNCC4)cc3)nc12,"FGFR2 (Homo sapiens, UniProt P21802)","enzyme activity, inhibitor",,,> 10 µM
COc1ccccc1C1CCN(c2nc(C3(F)CCC3)nc3c(Cl)cc(N(C)CCO)cc23)CC1,NTSR1,"G protein activation, antagonist, BRET",,,1.91 µM
O=C1CC(c2ccccc2)N1S(=O)(=O)c1cccc(-c2ccccc2)c1 (centres unmarked),glpG,"substrate cleavage, inhibitor",NR698,,9.5 µM
COc1ccc(C(=O)CC2(O)C(=O)Nc3cc(Cl)cc(Cl)c32)cc1OC (centres unmarked),ppa,"enzyme activity, inhibitor",,,> 100 µM
c1ccc2c(NC3CCCCC3)nc(NC3CCCCC3)nc2c1,ADRB2,"β-arrestin recruitment, antagonist",,,4 µM
CN(C)c1nc(NCc2ccc(Oc3ccccc3)cc2)c(/N=N/c2ccc(Cl)cc2)c(N(C)C)n1,"Chitinase (OfChi-h, Ostrinia furnacalis, UniProt Q4AE59)","enzyme activity, inhibitor, fluorescence",,,0.09 µM
CN(c1ccccc1)c1nc(NC2CCCCC2)c2ccccc2n1,ADRB2,"cAMP production, antagonist, GloSensor",,together with: isoproterenol 1 µM,> 50 µM
O=C(CSc1nnc(-c2ccco2)c(-c2ccco2)n1)c1cccs1,ppa,"inhibitor, counter-screen, coupling enzyme alone",,,37.8 µM
O=C1C(Cl)=C(NCCN2CCOCC2)C(=O)c2ncccc21,"EHMT1 (Homo sapiens, UniProt Q9H9B1)","enzyme activity, inhibitor",,,> 100 µM
NC(=O)c1ccc2nc(CN3CCCC3c3ccco3)cc(O)c2c1 (centres unmarked),DNA dC->dU-editing enzyme APOBEC-3B C-terminal domain,"deaminase activity, inhibitor, UDG-coupled deamination",,,458 ± 18 µM
O=P(O)(O)C(Nc1ccc(Cc2ccccc2)cc1)P(=O)(O)O,"polyphosphate kinase 2 (Cytophaga hutchinsonii, UniProt A0A6N4SMB5)","enzyme activity, inhibitor, HPLC",,"30 min, 37 °C, together with: 0.04 mM ADP and 0.3 mM polyP",60.2 ± 0.065 µM
Cc1nc(N(C)c2ccc3c(c2)/C(=C/c2cn(C)c4ccccc24)C(=O)N3C)c2ccccc2n1,PIK3CD,"enzyme activity, inhibitor, ADP detection",,,0.227 µM
Clc1ccccc1C1=Nn2c(nnc2C2CCCCC2)SC1,ppa,"enzyme activity, inhibitor",,,> 100 µM
O=C(O)Cc1cc2c(cc1C(=O)c1cccc(Br)c1)OCO2,Gria1,"ion current, patch clamp",,,4.61 µM
Cc1cccc2c1NC(=O)C2(O)CC(=O)c1ccc2c(c1)OCO2 (centres unmarked),ppa,"enzyme activity, inhibitor",,,> 100 µM
CCC1(O)CCCN(C(=O)c2ccc(-c3ccccc3C(F)(F)F)cc2)C1 (centres unmarked),DNA dC->dU-editing enzyme APOBEC-3B C-terminal domain,"deaminase activity, inhibitor, UDG-coupled deamination",,,383 ± 17 µM
COc1ccccc1C1CCN(c2nc(C3(C)CCCC3)nc3ccc(N(C)CCO)cc23)CC1,NTSR1,"G protein activation, antagonist",,,9.7 µM
COc1cc(CF)c(C(N)=O)cn1,NNMT,"enzyme activity, inhibitor",,,1.58 µM
O=C1Nc2ccccc2C12NC(c1ccc(Cl)c(Cl)c1)C1(C(=O)Nc3ccccc31)N2Cc1ccc(Cl)c(Cl)c1 (centres unmarked),PIK3CD,"enzyme activity, inhibitor, ADP detection",,,0.216 µM
COc1cccc(OC)c1-c1cc(C(=O)NC2(C(=O)O)C3CC4CC(C3)CC2C4)nn1-c1ccc(C(=O)N(C)CCCN(C)CCCN(C)C(=O)[C@H](CCCCNC(=O)[C@H](CC(C)C)NC(=O)C2OC2C(=O)O)NC(=O)CN2CCN(CC(=O)O)CCN(CC(=O)O)CCN(CC(=O)O)CC2)cc1C(C)C (mixture of isomers),NTSR1,"ligand displacement, radioligand",,,0.015 µM
COc1cc2nc(C3CC3)nc(N3CCC(c4ccccc4OC)CC3)c2cc1OC,NTSR1,"G protein activation, antagonist, BRET",,,10.2 µM
CCC(NC(=O)c1cccc(-c2ccc(C)nc2N)c1)c1ccnn1C (centres unmarked),DNA dC->dU-editing enzyme APOBEC-3B C-terminal domain,"deaminase activity, inhibitor, UDG-coupled deamination",,,754 ± 34 µM
Cc1ccc2c(c1C)NC(=O)C2(O)CC(=O)c1ccc2c(c1)OCO2 (centres unmarked),Uncharacterized protein,"inhibitor, coupled colorimetric",Trypanosoma brucei,,365 µM
OCC1CCCN(CCNc2cc(-c3ccccc3)nc3ccnn23)C1 (centres unmarked),"DNA dC->dU-editing enzyme APOBEC-3B (Homo sapiens, UniProt Q9UH17)","enzyme activity, inhibitor, HPLC",,,108 µM
COc1ccc(C(=O)CC2(O)C(=O)Nc3cc(Cl)cc(Cl)c32)c(OC)c1 (centres unmarked),ppa,"enzyme activity, inhibitor",,,> 100 µM
C[C@@H](Nc1nc2c(cnn2C(C)(C)C)c(=O)n1Cc1cccc(F)c1)c1ccc(Cl)cc1,"PDE7A (Homo sapiens, UniProt Q13946)","enzyme activity, inhibitor",,,0.827 µM
OC[C@@H]1[C@@H](O)[C@H](O)[C@@H](O)[C@H]2O[C@@H]12,"Oligosaccharide 4-alpha-D-glucosyltransferase (agd31B, Cellvibrio japonicus, UniProt B3PEE6)","enzyme activity, inhibitor",,"30 min preincubation, pH 6.5, 25 °C",> 100 µM
COc1cccc2c(=O)c(CO)coc12,NNMT,"enzyme activity, inhibitor",,,3.98 µM
COc1ccc(CN2C3(NC(c4ccc(OC)cc4)C24C(=O)Nc2ccccc24)C(=O)Nc2ccccc23)cc1 (centres unmarked),PIK3CD,"enzyme activity, inhibitor, ADP detection",,,0.687 µM
CCn1nc(Cl)c2c1-c1cnc(N)c(c1)O[C@H](C)c1cc(F)ccc1-c1nn(C)cc1C2,"EPHA5 (Homo sapiens, UniProt P54756)","enzyme activity, inhibitor, radiometric",,,0.635 µM
Fc1ccc(Nc2nc(NC3CCCCC3)c3cc(Cl)ccc3n2)cc1F,ADRB2,"β-arrestin recruitment, antagonist",,,0.18 µM
Oc1ccc(C#Cc2cccc3c2C(c2ccc(O)cc2)(c2ccc(O)cc2)c2cc(O)ccc2-3)cc1,"PDE4D (Homo sapiens, UniProt Q08499)","enzyme activity, inhibitor",,,0.202 µM
O=C(O)Cc1cc2c(cc1C(=O)c1ccccc1I)OCO2,Gria1,"ion current, patch clamp",,,4.81 µM
O=C(O)c1cccnc1-c1nc2cc(OC(F)(F)F)ccc2[nH]1,"Core-binding factor subunit beta, with RUNX1 Runt domain (Homo sapiens, UniProt Q13951)","Runt domain binding, inhibitor, FRET",,,48.9 ± 1.6 µM
CC(C)c1ccc(/C=C/C(=O)c2nc3ccccc3[nH]2)cc1,"MAOB (Homo sapiens, UniProt P27338)","enzyme activity, inhibitor",,,4.71 µM
O=C1NC(=O)[C@](CNC(=O)[C@@H](Cc2ccc(C(F)(F)F)cc2)C2CC2)(C2CC2)N1,"A disintegrin and metalloproteinase with thrombospondin motifs 7 (Homo sapiens, UniProt Q9UKP4)","enzyme activity, inhibitor, FRET",,,0.055 µM
C[N+](C)(CCCN1c2ccccc2CCc2ccc(Cl)cc21)Cc1ccc2ccccc2c1,ppa,"inhibitor, counter-screen, coupling enzyme alone",,,32.6 µM
N[C@@H](Cc1c[nH]c2ccc(OCc3ccc(-c4ccsc4)cc3)cc12)C(=O)O,SLC7A5,"transporter uptake, inhibitor, radiometric",,,18.6 µM
COc1ccc(OC)c(C2=Nn3c(nnc3-c3ccccc3)SC2)c1,Uncharacterized protein,"inhibitor, coupled colorimetric",Trypanosoma brucei,,449 µM
O=C(CCNC(=O)CNC(=O)CC(c1ccccc1)(c1ccccc1)c1ccccc1)NC[C@@H]1CCCN(C(=O)c2ccc(F)cc2)C1,CHRM3,"ligand displacement, radioligand",,cell membranes,> 30 µM
